Measured values from different studies.
Numbered parts are unrelated; each lists some results of a single study.

Block 1
Target: Histone acetyltransferase KAT6A, winged helix 1, GST fusion (KAT6A, Homo sapiens, UniProt Q92794, residues 1-85)
Technique: protein binding microarray
Molecule type: double-stranded DNA, one strand shown
Medium: in vitro
Concentration: not given
Notes: 8-mer, flanks averaged, mean of 2 arrays, mostly near background
Baseline: not given
Direction: higher = stronger binding
Target sequence (chain): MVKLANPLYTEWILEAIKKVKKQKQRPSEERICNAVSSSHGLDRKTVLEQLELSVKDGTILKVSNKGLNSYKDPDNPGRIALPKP
For `CTTCGAGC`, the E-score was 0.0601.
For `ATTTATGC`, the E-score was -0.14.
For `AGTGGAGC`, the E-score was -0.117.
The E-score of `CTTGTCCA` is reported as -0.208.
For `CCTAGAGC`, the E-score was 0.194.
With `CAATTAAA` the E-score was -0.154.
`GCTTCCAC` has an E-score of 0.0962.
For `GTTAAGGA`, the E-score was -0.211.
For `TACCACAA`, the E-score was -0.331.
For `AATGATAC`, the E-score was -0.189.
The E-score of `ATGACTGC` is reported as -0.11.
For `AATCCCAC`, the E-score was -0.264.
For `GCTGGTCC`, the E-score was 0.0499.
With `CCACCTAC` the E-score was -0.079.
`CCCATCTC` gave an E-score of -0.147.
For `CTCATGCA`, the E-score was -0.274.
For `ATAAGTCG`, the E-score was -0.0322.

Block 2
Target: RNA binding protein fox-1 homolog 2, RRM domain, GST-SBP tag (RBFOX2, Homo sapiens, UniProt O43251-10, residues 100-194)
Technique: RNA Bind-n-Seq
Molecule type: RNA
Medium: in vitro
Concentration: 365 nM
Notes: natural RNA segment, single round, ends assumed
Baseline: no-protein control
Direction: higher = stronger binding
Constant ends, left off below: GGGAGUUCUACAGUCCGACGAUC … UGGAAUUCUCGGGUGCCAA
Target sequence (chain): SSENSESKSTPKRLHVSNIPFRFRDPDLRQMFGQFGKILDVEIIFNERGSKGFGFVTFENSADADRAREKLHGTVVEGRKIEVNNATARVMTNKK
`AGUGCCUUACAAAUCCUAAGCUCAGAGAAAGUUAGCUCCAUUUCCGUUCCCAAGGGAGGGGCCUCUGAGGUCCUUCUGCCUUGUUGAUGAAGAGUGGUUGGUUGUAGAGC`: “RBNS enrichment (R)” 0.298.
Under “RBNS enrichment (R)”, `AUCUUCUGUGAGGUGGGAUUUUUGUGUUCCUCACACCCAUGUAAUUAUUCUUAGAAUUGAGAUUGCUACACGGAGCAGUCCUUGACGAUCGUGUUUCUGACGUUUCUCUU` is recorded as 0.256.
`GGUUGCAUUGAGCUACUGGGGGUAGGAGUUCCAACAUUUAUGUCCAGAGCAACUUCCAGCAAGGCUGGUCUGGGUCUCUGCCCACCAGGCGGGGAGGUGUUCAAAGACAU` — result for “RBNS enrichment (R)”: 0.276.
`GGAUAAACAGUCAAACCUUUAUCCUCUAGAAUUUUGGCAAUGUUGACUAAGAAACAGAGUCCAAGCAGAGAAGGUAGGAACCCUCCAUAGCUCUCUGCCCUGAUGUGUGG` — result for “RBNS enrichment (R)”: 0.29.
`AAGACCACCAGGCUCUGAGUGACCUCUCUAAUUCUGUCUUCCCACCCACCAGUGACUUGACUGCUCUGCACCUUUGCAUCUUCAGAGCUGCUGCGUCUAUCAGGAGAGCA` — result for “RBNS enrichment (R)”: 2.26.
Under “RBNS enrichment (R)”, `UCCUCACCGCACGGCACAUCUGAGAGAUGGACCCUGGCAGAGCUCCUGAGAGUGUGAGGUCAUCAGAACCCACCUGCCACUGAGGCCAGUGAAGGUCUCAGACCAAGGGG` is recorded as 2.17.
Under “RBNS enrichment (R)”, `UGAAUGCUGGGCCCCUGCUCAAGUCUACCCUGAUCACCUCAGGGCAUAAAGCAUGUUUCAUUCUCUGGCCCGACAGUGUCUUUGCUCAGGGAGGGGAAGUGGAAGGGAAG` is recorded as 1.73.
`AACGGUUUAACAGCAAGGGUACAAAGGCUGUAGUUUGAGGCCAGAGCAAUUAGCGCUUGUCAGCUUACCUUACAACACAGAGGGUCCAGCUGUUCACACAAGGGGGCAGG` — result for “RBNS enrichment (R)”: 0.316.

Block 3
Target: Prothrombin, mature alpha-thrombin (F2, Homo sapiens, UniProt P00734)
Technique: aptamer microarray, sandwich
Molecule type: DNA with 2'F-ANA
Medium: in vitro
Concentration: 200 nM
Notes: whole 15-mer aptamer, many near background
Added: Cy3 exosite-II aptamer, 400 nM
Direction: higher = stronger binding
Strand: GGTTGGTGTGGTTGG
`2'F-ANA at 1 2 6 7 8 11 12 13 14 15` — result for “mean fluorescence intensity”: 100 a.u.
`2'F-ANA at 1 2 4 5 6 7 8 15`: “mean fluorescence intensity” 75.5 a.u.
`2'F-ANA at 2 3 6 7 8 10 11` — result for “mean fluorescence intensity”: 335 a.u.
`2'F-ANA at 4 5 10 11 12 14 15`: “mean fluorescence intensity” 117 a.u.
`2'F-ANA at 4 5 7 9 10 11 12 13 14` — result for “mean fluorescence intensity”: 47.2 a.u.
For `2'F-ANA at 1 2 5 6 7 9`, “mean fluorescence intensity” read 63.6 a.u.
`2'F-ANA at 2 3 4 6 9 11 12 15` — result for “mean fluorescence intensity”: 589 a.u.
`2'F-ANA at 3 4 5 6 7 8 10 11 12 13` — result for “mean fluorescence intensity”: 50.3 a.u.
For `2'F-ANA at 2 3 4 9 11 12 14 15`, “mean fluorescence intensity” read 269 a.u.
Under “mean fluorescence intensity”, `2'F-ANA at 1 6 12 15` is recorded as 380 a.u.
For `2'F-ANA at 1 11 14`, “mean fluorescence intensity” read 73 a.u.
`2'F-ANA at 1 2 3 4 5 6 8 9 10 12 13` — result for “mean fluorescence intensity”: 140 a.u.
`2'F-ANA at 2 3 4 5 6 10` — result for “mean fluorescence intensity”: 50.3 a.u.
For `2'F-ANA at 1 2 11 14`, “mean fluorescence intensity” read 56.6 a.u.
`2'F-ANA at 1 2 4 5 9 11 12 14 15` — result for “mean fluorescence intensity”: 44.8 a.u.
Under “mean fluorescence intensity”, `2'F-ANA at 1 2 3 4 5 6 7 10 14` is recorded as 49.6 a.u.
`2'F-ANA at 1 3 5 6 7 9 11 12` — result for “mean fluorescence intensity”: 209 a.u.
For `2'F-ANA at 1 2 4 5 6`, “mean fluorescence intensity” read 55.7 a.u.

Block 4
Target: Interferon regulatory factor 5, full length, phosphomimetic (IRF5, Homo sapiens, UniProt Q13568-2, residues 1-514, S451D/S453D/S456D/S462D)
Technique: protein-binding microarray
Molecule type: double-stranded DNA, one strand shown
Medium: in vitro
Concentration: 940 nM top
Notes: 60-bp whole probe
Added: salmon DNA 0.4 mg/ml
Baseline: random background probes
Direction: higher = stronger binding
Constant ends, left off below: GCCTAGCAC … GTCTTGATTCGCTTGACGCTGCTG
Under “fitted relative affinity”, `GACGGTCTCGGTTTCGGGAAGTGCTAG` is recorded as 6.87 z-score.
`TATAATATATATTCATATATGTGCTAG`: “fitted relative affinity” 0.176 z-score.
Under “fitted relative affinity”, `CCAAGGTTCAAGTTTACCCATGTGCTA` is recorded as 0.0257 z-score.
`GAAGATCTCAGTTTCGAGACGTGCTAG`: “fitted relative affinity” 3.56 z-score.
`CTCCCATTATATTTTAATCAGTGCTAG` — result for “fitted relative affinity”: 1 z-score.
`TCATAAATCTTTTTCCCACTGTGCTAG` — result for “fitted relative affinity”: 0.91 z-score.
`GACGATTTCGGGAGTGGAGACGTGCTA` — result for “fitted relative affinity”: 0.373 z-score.
`CCTAATTCTCTTTTCACTTTGTGCTAG`: “fitted relative affinity” 2.31 z-score.
Under “fitted relative affinity”, `GCCGGTTTCCTTCTCCTGACGTGCTAG` is recorded as 2.14 z-score.
Under “fitted relative affinity”, `GACGGTATCCTTATTCTGACGTGCTAG` is recorded as 0.366 z-score.
`TCACCTTTGCCTCTGAGACTGTGCTAG`: “fitted relative affinity” 0.221 z-score.
`TTAGGTTTCGACTATTGGTTAGTGCTA` — result for “fitted relative affinity”: 9.19 z-score.
Under “fitted relative affinity”, `TCACCCCTCTCATTCCAACTGTGCTAG` is recorded as 1.25 z-score.
`TTAGATTTCAAACTGGATTAGTGCTAG` — result for “fitted relative affinity”: -0.456 z-score.
For `AGTGGAGTTCATTGTCATTTGTGCTAG`, “fitted relative affinity” read -0.208 z-score.
Under “fitted relative affinity”, `GACGGTTCCAGTTTCGGGACGTGCTAG` is recorded as 4.74 z-score.
For `GACGATATCAGACTGGAGAGGTGCTAG`, “fitted relative affinity” read -0.208 z-score.
`TTCTCTCTGGCCCTCCTGAGGTGCTAG`: “fitted relative affinity” 0.962 z-score.
`TTAGGTTTCGGGTATCGATTAGTGCTA`: “fitted relative affinity” 10.9 z-score.
